Measurements from different studies.
Every numbered part comes from another study and shows a few of its results, in no order. Substitutions count along the parent as printed.

Study 1
Target: ABI1, truncated, D143A, DHFR fusion (Arabidopsis thaliana)
Technique: DHFR PCA, deep sequencing
Medium: yeast
Setting: methotrexate growth selection, single substitutions
Added: (+)-ABA 4.8 µM
Baseline: wild-type fitted maximum
Reading: higher = stronger binding
Starting sequence: PYL1, truncated, DHFR fusion (Arabidopsis thaliana); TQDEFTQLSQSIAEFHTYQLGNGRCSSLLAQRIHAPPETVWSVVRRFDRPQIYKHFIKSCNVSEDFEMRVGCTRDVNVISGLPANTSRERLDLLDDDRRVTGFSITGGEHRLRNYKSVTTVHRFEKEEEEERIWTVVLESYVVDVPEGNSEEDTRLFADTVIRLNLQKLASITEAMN
| Variant | relative binding score [%] |
| --- | --- |
| E129I | 56.9 |
| N85R | 87.7 |
| L166N | -16.4 |
| S59W | 17.5 |
| I57Q | -9.02 |
| D144T | 17.2 |
| P36I | 11.1 |
| R132S | 97.2 |
| Q2T | 71.1 |
| R69T | 70 |
| E131K | 84.9 |
| G102N | -2.88 |
| Q7P | 52.7 |
| L164P | -24.3 |
| H34Y | 69.1 |
| G71P | 0.982 |
| I162L | 5.33 |
| P83F | 9.75 |
| T1N | 73.1 |
| G23A | 42.9 |
| G71I | -6.79 |
| R98C | 15.9 |
| E4S | 56.4 |
| D65R | 56.3 |
| V40G | -8.82 |

Study 2
Target: CCNA1, cyclin fold, Cln2 fusion (human)
Technique: yeast growth competition, sequencing
Medium: yeast
Setting: strong parent motif
Baseline: not given
Reading: higher = stronger binding
Starting sequence: RBL2 docking peptide (human); STTRRRLFVENDS; partner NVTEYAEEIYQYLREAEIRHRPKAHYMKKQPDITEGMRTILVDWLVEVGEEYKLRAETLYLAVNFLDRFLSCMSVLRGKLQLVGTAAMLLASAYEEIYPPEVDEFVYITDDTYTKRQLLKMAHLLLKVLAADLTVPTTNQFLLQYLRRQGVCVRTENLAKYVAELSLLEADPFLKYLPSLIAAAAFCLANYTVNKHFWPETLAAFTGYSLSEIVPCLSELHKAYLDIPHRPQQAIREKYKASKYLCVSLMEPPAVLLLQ
| Variant | normalised enrichment score |
| --- | --- |
| F8D | 0.298 |
| T3E | 0.0396 |
| V9P | 0.528 |
| R4L | 0.334 |
| R4H | 0.425 |
| L7T | 0.524 |
| V9F | 0.538 |
| N11L | 0.563 |
| R5F | 0.065 |
| R6Q | 0.898 |
| S13N | 0.523 |
| R5A | 0.0287 |
| D12G | 0.808 |
| S1A | 0.675 |
| L7E | 0.321 |
| S1Y | 0.669 |
| F8T | 0.43 |
| D12V | 0.616 |
| N11V | 0.476 |
| S13G | 0.64 |
| S13R | 0.694 |
| S13A | 0.59 |
| R6C | 0.726 |
| T2A | 0.438 |
| D12A | 0.353 |

Study 3
Target: Histone acetyltransferase KAT6A, winged helix 2, GST fusion (KAT6A, Homo sapiens, UniProt Q92794, residues 85-181)
Technique: protein binding microarray
Form: double-stranded DNA, one strand shown
Medium: in vitro
Tested at: not given
Setting: 8-mer, flanks averaged, mean of 2 arrays, mostly near background
Baseline: not given
Reading: higher = stronger binding
Target sequence (chain): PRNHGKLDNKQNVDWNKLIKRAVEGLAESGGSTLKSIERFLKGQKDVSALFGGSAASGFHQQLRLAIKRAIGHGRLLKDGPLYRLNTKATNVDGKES
| Oligonucleotide | E-score |
| --- | --- |
| GTTCTAAA | 0.104 |
| CAAAGGAC | -0.169 |
| ATAAGCAC | 0.0788 |
| AGCTCCGG | 0.103 |
| GTCGAGAC | -0.098 |
| AGGGAGTG | -0.0338 |
| CTCTCTTC | -0.0338 |
| ATGATATA | -0.0251 |
| ATCACCCA | -0.0952 |
| TCCGCACA | -0.0581 |
| CTGTGATC | -0.136 |
| CTGGGGCC | 0.137 |
| ATCGGATC | 0.0822 |
| CGAGCAGC | 0.104 |
| ATGTCAGG | -0.17 |
| CTGCTTCA | 0.062 |
| ATCAATGC | 0.0421 |

Study 4
Target: Sal-like protein 4, full length isoform B (SALL4, Homo sapiens, UniProt Q9UJQ4-2, residues 1-616)
Technique: universal PBM
Form: double-stranded DNA, one strand shown
Medium: in vitro
Tested at: not given
Setting: 8-mer, flanks averaged, mean of replicates
Reading: higher = stronger binding
Construct (chain): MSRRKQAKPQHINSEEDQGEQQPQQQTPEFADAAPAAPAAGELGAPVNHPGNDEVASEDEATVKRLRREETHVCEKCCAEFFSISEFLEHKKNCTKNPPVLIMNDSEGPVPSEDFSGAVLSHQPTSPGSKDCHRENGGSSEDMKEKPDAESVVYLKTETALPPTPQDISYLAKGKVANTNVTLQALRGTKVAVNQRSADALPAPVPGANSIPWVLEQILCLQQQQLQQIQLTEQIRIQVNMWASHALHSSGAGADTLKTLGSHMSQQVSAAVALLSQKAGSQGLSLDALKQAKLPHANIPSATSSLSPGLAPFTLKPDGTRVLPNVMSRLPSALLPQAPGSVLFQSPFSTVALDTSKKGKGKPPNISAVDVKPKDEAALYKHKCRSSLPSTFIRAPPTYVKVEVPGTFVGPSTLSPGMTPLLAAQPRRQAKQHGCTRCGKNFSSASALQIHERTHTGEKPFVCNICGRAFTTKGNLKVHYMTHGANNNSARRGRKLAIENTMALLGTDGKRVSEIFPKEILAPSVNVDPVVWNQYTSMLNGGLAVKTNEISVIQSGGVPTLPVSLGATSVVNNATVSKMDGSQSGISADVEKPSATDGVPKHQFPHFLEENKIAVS
| Oligonucleotide | E-score |
| --- | --- |
| AGATTGTC | -0.048 |
| AGGGCTGG | -0.23 |
| GACAAAGC | 0.0216 |
| GGGAAAGA | -0.164 |
| CAAGTCCG | -0.209 |
| GAACGCCC | -0.189 |
| AGCTGCAA | -0.0408 |
| ACGTATGG | 0.142 |
| AAGATTAG | 0.137 |
| TAGTAAGA | 0.13 |
| CATTCAAA | 0.211 |
| TACCGAAA | 0.119 |
| ATGTCAGC | -0.152 |
| AGATAAGA | 0.273 |
| ACCAGGAT | -0.025 |
| ATCTCGTC | -0.178 |
| GGACATCA | 0.0667 |
| AAGAGGTA | 0.009 |
| CCTAGTCC | -0.133 |
| AACGCTGA | -0.166 |
| AATCACAG | -0.0169 |
| GAAAGTAA | 0.248 |

Study 5
Partner: ARF6 790-935 (Arabidopsis thaliana, UniProt Q9ZTX8)
Technique: two-hybrid
Baseline: out of 4 tests
Reading: higher = firmer interaction
B1: IAA32 (Arabidopsis thaliana, UniProt Q8RYC6); chain MDPNTPADFFKGSSKFHTYYSQTKKGGGVIDLGLSLRTIQHETYLPPARMIGLDGYGELIDWSQPSYNSITQLKSEDTGHQRLAQGYYNNEGESRGKYAYVKVNLDGLVVGRKVCLVDQGAYATLALQLNDMFGMQTVSGLRLFQTESEFSLVYRDREGIWRNVGDVPWKEFVESVDRMRIARRNDALLPF
B2: ARF5 788-902 (Arabidopsis thaliana, UniProt P93024); chain ATPRVRTYTKVQKTGSVGRSIDVTSFKDYEELKSAIECMFGLEGLLTHPQSSGWKLVYVDYESDVLLVGDDPWEEFVGCVRCIRILSPTEVQQMSEEGMKLLNSAGINDLKTSVS
B3: IAA29 (Arabidopsis thaliana, UniProt Q93WC4); chain MELDLGLSLSPHKSSKLGFNFDLNKHCAIEGAASCLGTEKLRFEATFGLGNVEENCYMPKQRLFALNGQPNEEDEDPLESESSIVYDDEEENSEVVGWPPVKTCMIKYGSYHHRHIRNHHHCPYHHRGRRITAMNNNISNPTTATVGSSSSSSISSRSSMYVKVKMDGVAIARKVDIKLFNSYESLTNSLITMFTEYEDCDREDTNYTFTFQGKEGDWLLRGDVTWKIFAESVHRISIIRDRPCAYTRCLF
B4: ARF4 660-788 (Arabidopsis thaliana, UniProt Q9ZTX9); chain QSSSKRICTKVHKQGSQVGRAIDLSRLNGYDDLLMELERLFNMEGLLRDPEKGWRILYTDSENDMMVVGDDPWHDFCNVVWKIHLYTKEEVENANDDNKSCLEQAALMMEASKSSSVSQPDSSPTITRV
Residues (chain): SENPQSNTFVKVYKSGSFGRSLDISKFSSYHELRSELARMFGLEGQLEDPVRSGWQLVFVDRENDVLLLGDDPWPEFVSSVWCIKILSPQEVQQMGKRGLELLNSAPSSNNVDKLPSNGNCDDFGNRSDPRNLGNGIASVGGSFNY
| Molecule | positive tests |
| --- | --- |
| B1 (IAA32) | 3 |
| B2 (ARF5 788-902) | 1 |
| B3 (IAA29) | 2 |
| B4 (ARF4 660-788) | 0 |
